Measured values of several laboratories.
Each numbered part is a random draw from the data of one study; scales do not carry over between parts. Substitutions count along the parent as printed.

Set 1
Target: CCND2, cyclin fold, Cln2 fusion (human)
Method: yeast growth competition, sequencing
Sample: yeast
Notes: weak parent motif
Baseline: not given
Direction: higher = stronger binding
Parent: CDKN1B docking peptide (human); PSACRNLFGPVDH; partner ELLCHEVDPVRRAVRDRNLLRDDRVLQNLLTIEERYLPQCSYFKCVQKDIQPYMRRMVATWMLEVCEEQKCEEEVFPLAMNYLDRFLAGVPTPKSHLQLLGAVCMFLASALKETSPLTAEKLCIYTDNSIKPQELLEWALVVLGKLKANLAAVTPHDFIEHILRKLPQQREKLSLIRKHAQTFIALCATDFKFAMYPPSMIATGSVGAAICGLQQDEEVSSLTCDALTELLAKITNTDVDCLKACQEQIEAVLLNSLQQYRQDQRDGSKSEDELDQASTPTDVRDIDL
Change | normalised enrichment score
PSACTNLFGPVDH [R5T] | 0.127
PSACRNLFGKVDH [P10K] | -0.177
PSACPNLFGPVDH [R5P] | -0.0347
PSACCNLFGPVDH [R5C] | -0.309
PSACRNLFGWVDH [P10W] | 0.243
PSAIRNLFGPVDH [C4I] | 0.239
PSACLNLFGPVDH [R5L] | 0.0566
PSACRGLFGPVDH [N6G] | 0.0847
PSACRNLFGAVDH [P10A] | -0.231

Set 2
Target: Fragile X messenger ribonucleoprotein 1, C-terminal low-complexity region (Fmr1, Mus musculus, UniProt P35922)
Method: RNA Bind-n-Seq
Form: RNA
Sample: in vitro
Concentration: 200 nM
Notes: whole 134-nt RNA, ends assumed
With: 150 mM LiCl
Baseline: input library
Direction: higher = stronger binding
Each molecule: 7-deaza-guanosine replaces G
Shared flanks, not repeated: GGGAGUUCUACAGUCCGACGAUC … UGGAAUUCUCGGGUGUCAAGG
Sequence | log2 enrichment
CAAGUCCUGUGCUACACAUCGUAUGUACCGAAUCGGGGUUUGGUUUGGGGUUUGGGAAAGUAUUAUGUUACGCCGUUCGGAUCUGCACUU | -2.16
CAAAGACAACACGCACCCACACAGACACAGAGGGAAGGGGUUGGGAUGGGGACAGGGUGCACAGCAGGGCGGGGUAGGACCCCAGCCCCU | 0.661
CACAGACAACACGCACCCACACAGACACAGAGGGAAGGGGUUGGGAUGGGGACAGGGUGCACAGCAGUGCGGGGUAGGACCCCAGCCCCU | -0.265
UCAAGUCCUGUGCUACACAUCGUAUGUACCGAAUCGGUGGAAAAAAAGGAAAGGAAAGUAUUAUGUUACGCCGUUCGGAUCUGCACUUCC | -1.31
CCUCAAGUCCUGUGCUACACAUCGUAUGUACCGAAUCGGAAGGGGAAGGAAGGAAAGUAUUAUGUUACGCCGUUCGGAUCUGCACUUCCA | -1.58
CAAGUCCUGUGCUACACAUCGUAUGUACCGAAUCGGGGCCCGGCCCGGGCCCGGGAAAGUAUUAUGUUACGCCGUUCGGAUCUGCACUUC | -1.69
UCAAGUCCUGUGCUACACAUCGUAUGUACCGAAUCGGGAAAAAGGGUGGGAGGGAAAGUAUUAUGUUACGCCGUUCGGAUCUGCACUUCC | -0.958
GUCCUGUGCUACACAUCGUAUGUACCGAAUCGGGUUUUUUGGUUUUUUGGUUUUUUGGAAAGUAUUAUGUUACGCCGUUCGGAUCUGCAC | -1.7

Set 3
Target: Interferon regulatory factor 5, full length, phosphomimetic (IRF5, Homo sapiens, UniProt Q13568-2, residues 1-514, K96S/S451D/S453D/S456D/S462D)
Method: protein-binding microarray
Form: double-stranded DNA, one strand shown
Sample: in vitro
Concentration: 250 nM
Notes: 60-bp whole probe
With: salmon DNA 0.4 mg/ml
Baseline: random background probes
Direction: higher = stronger binding
Shared flanks, not repeated: GCCTAGCAC … GTCTTGATTCGCTTGACGCTGCTG
Sequence | log fluorescence
GATGGTATCGACTTTCGGGACGTGCTA | 7.23 z-score
TCAGGTATAAACTTGGGACTGTGCTAG | -0.261 z-score
GTCGGTTCCGGTTTCGGGACGTGCTAG | 5.7 z-score
ACATATTTGTTTCCATTTTCGTGCTAG | 2.65 z-score
GACGAACTCAGACTGGAGACGTGCTAG | -0.421 z-score
GACGGTATCCTTTTGCTGACGTGCTAG | 0.444 z-score
TCAGGGCTACCTCTCTTACTGTGCTAG | -0.458 z-score
GACGGACTGGACACTGGGGATGTGCTA | -0.332 z-score
GACGGTCTCGGTCTCTGGACGTGCTAG | 0.088 z-score
TACCTTAGGTTTTCTGGTTCCGTGCTA | 0.334 z-score
AGGCCCTTTGCTTTCCTGATGTGCTAG | -0.000322 z-score
GACGGTTTCAGGACTGGGGACGTGCTA | 0.885 z-score

Single results of other studies
Substance | target | assay | test system | setting | scale | endpoint | value
PhoQ, residues 284 288 289 292 302 303 TLASMF | PhoP, residues 12 14 15 18 19 LHSVQ (Escherichia coli, UniProt P23836) | Sort-seq, refers to: YFP reporter | E. coli | PhoQ-PhoP variant library, with: 10 µM Mg2+ | baseline: high Mg2+ state, higher = stronger signaling | fold induction | 5.41

Some of these lines once more (set 3):
Sequence | log fluorescence
TCAGGGCTACCTCTCTTACTGTGCTAG | -0.458 z-score
GACGGACTGGACACTGGGGATGTGCTA | -0.332 z-score
GACGGTCTCGGTCTCTGGACGTGCTAG | 0.088 z-score
